Measurements of several laboratories.
Lines come from different studies, so protocols differ. Several values in a cell are separate wells, animals, samples, runs or records. Numbers after ± are the reported error.

SMILES | tested on | assay | test system | setting | scale | endpoint | result
CC(=O)CC(c1ccccc1)c1c(O)c2ccccc2oc1=O (stereo not shown) | Nedd8-cullin1 interaction | neddylation, AlphaScreen |  | 100 µM |  | inhibition | 47.2%
NC(=O)C1CCN(C(=O)Cc2ccc(N(CCCO)Cc3cnc4nc(N)nc(N)c4n3)cc2)CC1 | 786-O | high-content imaging, refers to: MitoTracker Red uptake |  | 10 µM |  | mitochondrial toxicity | -2.18 ± 13.9%
Nc1cccc2c1C(=O)N(C1CCC(=O)NC1=O)C2=O (stereo not shown) | patient CD138+ cells | flow cytometry, refers to: annexin V and PI |  | 1 µM, autologous CD8+ T-cell co-culture |  | apoptotic cells | 5.43% and 5.67% and 8.57% and 12.6%
C=CCn1c(=O)c2cnc(Nc3ccc(N4CCN(C)CC4)cc3)nc2n1-c1ccc2c(n1)[C@@](O)(CC)CC2 | Kuramochi | flow cytometry, refers to: pHH3-γH2Ax+ |  | concentration not given |  | G2/M cells in subpopulation | 3.2%
CCCCCCCC(=O)Nc1ncc(Cc2cccc(OCc3cn(CCOC)nn3)c2)s1 | HGC-27 | cell viability, MTS |  | 10 µM |  | inhibition | 44.2 ± 21.9%
COc1ccc2c(c1)[C@]1(C[C@H]1c1ccc3c(/C=C/c4ccc(CN5C[C@@H](C)O[C@@H](C)C5)cc4)n[nH]c3c1)C(=O)N2 | HD-MB03 | cell growth |  | 168 h, DMSO |  | IC50 | 12.8 nM
COc1cc(/C=C/C(=O)N2CCC=CC2=O)cc(OC)c1OC | MDA-MB-468 | qRT-PCR, refers to: PUMA |  | 30 µM, 6 h | baseline: time zero | mRNA expression | 397 ± 61.5%
O=C(c1ccc2[nH]ccc2c1)N1CCN(S(=O)(=O)c2ccc3[nH]c(=O)oc3c2)CC1 | HL-60 | NUDT15 inhibitor, mass spectrometry |  | 10 µM, 16 h, with: 6-thioguanine 0.5 µM | higher = more incorporation | 6-thio-GTP in RNA | 298 a.u.
COc1cccc(OCCCN)c1-c1cc(Nc2cnc(C#N)cn2)n[nH]1 | HD-MB03 | cell growth |  | 168 h, DMSO |  | IC50 | 35.1 nM
CC(C)NCC(O)c1ccc(O)c(O)c1 (stereo not shown) | mouse ventricular cardiomyocytes |  |  | dose not given, 0.303 s |  | sarcomere length | 1.8 µm
CC(=O)O[C@H]1C(=O)[C@@]2(C)[C@H]([C@H](OC(=O)c3ccccc3)[C@]3(O)C[C@H](OC(=O)[C@H](O)[C@@H](NC(=O)c4ccccc4)c4ccccc4)C(C)=C1C3(C)C)[C@]1(OC(C)=O)CO[C@@H]1C[C@@H]2O | CHP-212 resistant sublines, USP7 V517F heterozygous |  |  | 0.04115 µM |  | viability | 62.3%
Cn1cc(-c2ccc(-c3cncc(Cl)c3N3CCC4(CCNC4=O)CC3)cc2)cn1 | COLO 205 | microarray, refers to: NEAT1 |  | concentration not given, 2 h | baseline: untreated cells | fold change in expression | 3.8
CCCCc1nc(Cl)c(CO)n1Cc1ccc(-c2ccccc2-c2nn[nH]n2)cc1 | human PBMC | RNA-seq, refers to: GPR82 mRNA |  | 10 µg/mL, 24 h | baseline: untreated control | log2 fold change | -2.45
COc1cnc2cccc(N3CCc4c(cc(Cn5ccnc5C)cc4-c4cn(C)nc4C(F)(F)F)C3=O)c2c1 | TE-5 | cell growth, inhibitor |  | 120 h |  | EC50 | 21300 nM
CCCCc1oc2ccc(NS(C)(=O)=O)cc2c1C(=O)c1ccc(OCCCN(CCCC)CCCC)cc1 | human embryonic stem cell aggregates | mRNA level, microarray, refers to: PRMT8 |  | 0.5 µM, 120 h | baseline: untreated, up-regulated | fold change | 2.3 fold
O=C(O)/C=C/c1ccc(O)c(O)c1 | H9c2 | western blot, refers to: HO-1 and NQO1 |  | concentration not given |  | protein level | increased
CCn1cc(-c2cc(Cn3ccnc3)cc3c2CCN([C@H](c2cc(OC)ccn2)C2CC2)C3=O)c(C(F)(F)F)n1 | NCI-H2126 | cell growth, inhibitor |  | 120 h |  | EC50 | > 30000 nM
Cc1nc(NC(=O)N2CCC[C@H]2C(N)=O)sc1-c1ccnc(C(C)(C)C(F)(F)F)c1 | NCI-H596 | cell growth, CellTiter-Glo |  | 120 h |  | Hill coefficient GR curve | 0.765
CC1=C(Cn2cnc([N+](=O)[O-])n2)C(=O)c2ccccc2C1=O | Schistosoma mansoni |  | adult worms | 25 µM, 48 h |  | killing | 45.9%
CCOC(=O)C1=C(COCCN)NC(C)=C(C(=O)OC)C1c1ccccc1Cl (stereo not shown) | Nedd8-cullin1 interaction | neddylation, AlphaScreen |  | 100 µM |  | inhibition | -133%
CCn1cc(-c2cc(Cn3ccoc3=N)cc3c2CCN([C@@H](C)c2cc(OC)ccn2)C3=O)c(C(F)(F)F)n1 | BICR6 | cell growth |  | 120 h |  | EC50 | 22 nM
O=C(NC[C@H](O)CO)c1ccncc1Nc1ccc(I)cc1F | HD-MB03 | cell growth |  | 168 h, DMSO |  | IC50 | 837 nM
CC1=C(Cn2cc([Si](C)(C)C)nn2)C(=O)c2ccccc2C1=O | Schistosoma mansoni |  | adult worms | 10 µM, 72 h |  | killing | 43.8%
CC(=O)c1c(C)c2cnc(Nc3ccc(N4CCNCC4)cn3)nc2n(C2CCCC2)c1=O | HD-MB03 | cell growth |  | 168 h, DMSO |  | IC50 | 714 nM
O[C@@H]1[C@@H](O)[C@H](Nc2cc3cccnc3c3ncccc23)OC[C@H]1O | HFF-1 and PC-3 | MTT |  | 48 h, dark | baseline: IC50 HFF-1 over IC50 PC-3 | selectivity ratio | 10

Excerpt of the above:
SMILES | tested on | assay | test system | setting | scale | endpoint | result
CCCCc1oc2ccc(NS(C)(=O)=O)cc2c1C(=O)c1ccc(OCCCN(CCCC)CCCC)cc1 | human embryonic stem cell aggregates | mRNA level, microarray, refers to: PRMT8 |  | 0.5 µM, 120 h | baseline: untreated, up-regulated | fold change | 2.3 fold
O=C(O)/C=C/c1ccc(O)c(O)c1 | H9c2 | western blot, refers to: HO-1 and NQO1 |  | concentration not given |  | protein level | increased
CCn1cc(-c2cc(Cn3ccnc3)cc3c2CCN([C@H](c2cc(OC)ccn2)C2CC2)C3=O)c(C(F)(F)F)n1 | NCI-H2126 | cell growth, inhibitor |  | 120 h |  | EC50 | > 30000 nM
